Measured values collected from several papers.
Several values in a cell are separate wells, animals, samples, runs or records. ± marks the error that the study gave.

Sequences of proteins named here, by UniProt entry; tags and fusion partners are left off. A change or cut given only in a name is not applied to a line headed by its entry. Residues count along the entry.
UniProt P05067, whole entry, looked up: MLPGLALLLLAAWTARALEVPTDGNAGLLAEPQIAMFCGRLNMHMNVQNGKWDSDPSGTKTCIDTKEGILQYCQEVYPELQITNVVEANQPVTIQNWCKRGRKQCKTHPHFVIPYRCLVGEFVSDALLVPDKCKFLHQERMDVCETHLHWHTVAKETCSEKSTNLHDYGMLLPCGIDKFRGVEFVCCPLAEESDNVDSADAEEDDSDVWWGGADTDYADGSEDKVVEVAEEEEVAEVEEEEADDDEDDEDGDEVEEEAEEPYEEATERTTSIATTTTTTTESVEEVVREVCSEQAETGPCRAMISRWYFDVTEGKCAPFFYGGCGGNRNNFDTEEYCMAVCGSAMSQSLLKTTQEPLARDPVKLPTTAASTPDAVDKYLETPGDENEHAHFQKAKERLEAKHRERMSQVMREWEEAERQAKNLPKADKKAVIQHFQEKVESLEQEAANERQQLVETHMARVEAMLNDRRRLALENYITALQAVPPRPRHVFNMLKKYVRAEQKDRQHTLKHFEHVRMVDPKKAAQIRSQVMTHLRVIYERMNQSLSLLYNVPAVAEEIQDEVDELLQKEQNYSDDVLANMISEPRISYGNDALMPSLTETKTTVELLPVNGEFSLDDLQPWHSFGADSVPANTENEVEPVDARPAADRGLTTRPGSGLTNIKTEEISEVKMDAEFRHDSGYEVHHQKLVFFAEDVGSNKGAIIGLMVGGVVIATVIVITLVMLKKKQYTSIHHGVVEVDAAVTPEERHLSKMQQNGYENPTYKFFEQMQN
UniProt P03372, whole entry: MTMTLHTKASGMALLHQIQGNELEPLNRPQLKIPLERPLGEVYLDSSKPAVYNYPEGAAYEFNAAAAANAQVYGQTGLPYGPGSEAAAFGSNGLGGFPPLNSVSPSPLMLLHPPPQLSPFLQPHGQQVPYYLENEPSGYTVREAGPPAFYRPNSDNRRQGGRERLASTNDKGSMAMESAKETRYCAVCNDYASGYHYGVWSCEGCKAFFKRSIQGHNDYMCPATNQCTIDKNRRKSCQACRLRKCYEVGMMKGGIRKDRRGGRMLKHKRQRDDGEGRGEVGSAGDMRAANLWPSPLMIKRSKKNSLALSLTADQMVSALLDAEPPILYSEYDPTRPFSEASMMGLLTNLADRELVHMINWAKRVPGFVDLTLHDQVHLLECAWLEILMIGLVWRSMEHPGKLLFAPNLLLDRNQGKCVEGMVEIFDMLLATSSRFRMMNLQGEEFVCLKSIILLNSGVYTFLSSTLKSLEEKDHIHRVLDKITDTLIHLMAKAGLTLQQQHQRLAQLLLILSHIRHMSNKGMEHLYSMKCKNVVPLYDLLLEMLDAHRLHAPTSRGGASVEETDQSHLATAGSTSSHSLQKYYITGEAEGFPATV
UniProt A0A381MCS3, 1-451: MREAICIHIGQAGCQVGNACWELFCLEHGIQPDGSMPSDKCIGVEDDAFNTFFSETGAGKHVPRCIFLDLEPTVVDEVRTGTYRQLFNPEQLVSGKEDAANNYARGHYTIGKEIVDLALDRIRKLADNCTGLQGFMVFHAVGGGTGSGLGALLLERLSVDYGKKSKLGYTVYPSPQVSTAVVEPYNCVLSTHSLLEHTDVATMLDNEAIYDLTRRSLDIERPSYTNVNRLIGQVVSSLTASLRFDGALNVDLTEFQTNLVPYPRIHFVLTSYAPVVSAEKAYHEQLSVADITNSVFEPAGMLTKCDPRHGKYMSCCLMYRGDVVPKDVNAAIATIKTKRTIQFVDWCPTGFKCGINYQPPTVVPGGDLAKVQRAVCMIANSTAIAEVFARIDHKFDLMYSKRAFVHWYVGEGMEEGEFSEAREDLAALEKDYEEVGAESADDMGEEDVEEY
UniProt A4HTR0, 1-443: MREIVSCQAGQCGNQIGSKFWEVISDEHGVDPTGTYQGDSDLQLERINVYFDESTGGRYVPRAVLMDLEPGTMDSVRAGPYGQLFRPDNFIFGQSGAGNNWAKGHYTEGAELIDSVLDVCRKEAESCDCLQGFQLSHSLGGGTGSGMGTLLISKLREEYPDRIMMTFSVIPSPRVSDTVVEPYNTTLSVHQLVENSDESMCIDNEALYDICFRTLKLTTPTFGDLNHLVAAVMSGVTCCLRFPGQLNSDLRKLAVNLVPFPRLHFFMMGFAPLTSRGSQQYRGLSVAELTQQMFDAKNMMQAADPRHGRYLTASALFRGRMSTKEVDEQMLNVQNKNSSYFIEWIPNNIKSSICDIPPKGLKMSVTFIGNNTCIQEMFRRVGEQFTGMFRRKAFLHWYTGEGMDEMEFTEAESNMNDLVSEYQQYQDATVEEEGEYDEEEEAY
UniProt O95551, whole entry: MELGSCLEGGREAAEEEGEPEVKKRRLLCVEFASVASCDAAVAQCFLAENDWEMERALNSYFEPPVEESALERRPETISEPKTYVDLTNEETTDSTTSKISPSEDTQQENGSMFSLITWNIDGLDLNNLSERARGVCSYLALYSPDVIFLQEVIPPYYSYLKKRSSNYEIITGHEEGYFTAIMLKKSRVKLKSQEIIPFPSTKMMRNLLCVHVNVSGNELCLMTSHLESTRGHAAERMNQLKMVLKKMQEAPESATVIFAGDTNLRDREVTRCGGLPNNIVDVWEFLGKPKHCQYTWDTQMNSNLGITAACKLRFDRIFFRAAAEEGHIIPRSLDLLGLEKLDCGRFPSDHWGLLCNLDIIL
UniProt Q07440, whole entry P104K/C113S, looked up: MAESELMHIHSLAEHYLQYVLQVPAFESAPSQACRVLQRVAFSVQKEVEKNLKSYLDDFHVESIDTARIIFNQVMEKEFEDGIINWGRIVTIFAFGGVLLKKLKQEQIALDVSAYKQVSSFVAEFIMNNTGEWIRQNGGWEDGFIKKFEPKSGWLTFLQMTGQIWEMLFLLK
UniProt Q5S007, whole entry: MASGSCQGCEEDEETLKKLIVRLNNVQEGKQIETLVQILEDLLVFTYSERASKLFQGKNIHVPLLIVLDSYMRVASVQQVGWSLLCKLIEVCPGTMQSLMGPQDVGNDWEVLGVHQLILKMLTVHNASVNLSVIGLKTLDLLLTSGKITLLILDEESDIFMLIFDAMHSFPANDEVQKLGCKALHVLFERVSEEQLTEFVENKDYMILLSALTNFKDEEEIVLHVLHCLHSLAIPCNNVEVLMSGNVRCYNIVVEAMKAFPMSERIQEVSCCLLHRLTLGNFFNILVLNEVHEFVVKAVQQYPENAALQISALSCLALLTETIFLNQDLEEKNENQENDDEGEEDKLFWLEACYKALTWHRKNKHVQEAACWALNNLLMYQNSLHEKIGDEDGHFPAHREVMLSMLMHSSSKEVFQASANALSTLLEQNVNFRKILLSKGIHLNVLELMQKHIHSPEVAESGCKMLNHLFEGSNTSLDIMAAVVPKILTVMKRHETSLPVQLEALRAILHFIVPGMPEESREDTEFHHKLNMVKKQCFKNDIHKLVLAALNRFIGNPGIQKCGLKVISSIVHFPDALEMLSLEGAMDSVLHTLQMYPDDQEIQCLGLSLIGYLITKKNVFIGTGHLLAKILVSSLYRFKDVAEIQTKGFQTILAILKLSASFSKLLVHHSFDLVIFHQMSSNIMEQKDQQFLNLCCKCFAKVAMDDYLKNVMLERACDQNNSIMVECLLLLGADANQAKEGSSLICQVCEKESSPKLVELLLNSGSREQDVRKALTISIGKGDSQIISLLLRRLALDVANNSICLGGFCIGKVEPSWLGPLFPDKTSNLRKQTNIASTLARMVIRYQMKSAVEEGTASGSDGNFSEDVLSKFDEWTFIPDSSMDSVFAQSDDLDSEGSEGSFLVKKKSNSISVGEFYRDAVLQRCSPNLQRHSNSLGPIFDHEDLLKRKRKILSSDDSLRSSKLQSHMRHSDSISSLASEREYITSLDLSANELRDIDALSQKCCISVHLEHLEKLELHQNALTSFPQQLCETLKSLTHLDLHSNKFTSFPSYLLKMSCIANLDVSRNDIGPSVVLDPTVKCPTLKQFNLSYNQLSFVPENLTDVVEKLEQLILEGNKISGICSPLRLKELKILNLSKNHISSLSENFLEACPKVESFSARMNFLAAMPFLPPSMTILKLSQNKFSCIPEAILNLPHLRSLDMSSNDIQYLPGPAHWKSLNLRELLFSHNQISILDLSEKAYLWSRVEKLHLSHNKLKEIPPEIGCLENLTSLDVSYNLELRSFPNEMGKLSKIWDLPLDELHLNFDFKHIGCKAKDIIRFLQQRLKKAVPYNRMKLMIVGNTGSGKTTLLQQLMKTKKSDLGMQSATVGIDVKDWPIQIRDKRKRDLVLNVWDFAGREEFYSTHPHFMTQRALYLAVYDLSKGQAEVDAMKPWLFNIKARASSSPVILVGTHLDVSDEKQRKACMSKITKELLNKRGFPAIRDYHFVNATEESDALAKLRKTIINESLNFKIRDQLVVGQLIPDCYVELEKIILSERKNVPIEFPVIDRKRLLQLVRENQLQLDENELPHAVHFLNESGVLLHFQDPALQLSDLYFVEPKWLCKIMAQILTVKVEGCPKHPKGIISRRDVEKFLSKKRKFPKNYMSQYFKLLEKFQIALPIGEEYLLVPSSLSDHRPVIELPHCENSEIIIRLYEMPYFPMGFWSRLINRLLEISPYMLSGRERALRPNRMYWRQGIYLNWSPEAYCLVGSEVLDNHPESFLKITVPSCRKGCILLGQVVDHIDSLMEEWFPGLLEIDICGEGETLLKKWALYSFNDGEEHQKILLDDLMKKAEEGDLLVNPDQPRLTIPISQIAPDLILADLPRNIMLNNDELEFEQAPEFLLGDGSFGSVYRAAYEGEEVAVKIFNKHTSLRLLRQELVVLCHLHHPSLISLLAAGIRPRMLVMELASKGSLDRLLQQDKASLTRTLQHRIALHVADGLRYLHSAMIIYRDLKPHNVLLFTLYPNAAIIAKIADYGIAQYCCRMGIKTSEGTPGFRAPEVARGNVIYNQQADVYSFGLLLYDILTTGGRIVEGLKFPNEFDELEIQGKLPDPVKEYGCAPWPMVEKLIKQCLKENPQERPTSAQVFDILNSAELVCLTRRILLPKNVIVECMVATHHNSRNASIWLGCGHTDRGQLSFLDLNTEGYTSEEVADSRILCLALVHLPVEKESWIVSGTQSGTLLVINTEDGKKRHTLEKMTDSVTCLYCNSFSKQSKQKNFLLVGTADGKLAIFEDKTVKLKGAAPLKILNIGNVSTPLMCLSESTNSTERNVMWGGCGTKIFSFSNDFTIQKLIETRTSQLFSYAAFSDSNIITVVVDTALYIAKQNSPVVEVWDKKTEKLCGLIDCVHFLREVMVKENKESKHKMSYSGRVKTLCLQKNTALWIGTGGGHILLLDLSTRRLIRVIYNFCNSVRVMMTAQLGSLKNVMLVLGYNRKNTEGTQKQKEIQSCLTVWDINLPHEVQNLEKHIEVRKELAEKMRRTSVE
UniProt P50579, whole entry: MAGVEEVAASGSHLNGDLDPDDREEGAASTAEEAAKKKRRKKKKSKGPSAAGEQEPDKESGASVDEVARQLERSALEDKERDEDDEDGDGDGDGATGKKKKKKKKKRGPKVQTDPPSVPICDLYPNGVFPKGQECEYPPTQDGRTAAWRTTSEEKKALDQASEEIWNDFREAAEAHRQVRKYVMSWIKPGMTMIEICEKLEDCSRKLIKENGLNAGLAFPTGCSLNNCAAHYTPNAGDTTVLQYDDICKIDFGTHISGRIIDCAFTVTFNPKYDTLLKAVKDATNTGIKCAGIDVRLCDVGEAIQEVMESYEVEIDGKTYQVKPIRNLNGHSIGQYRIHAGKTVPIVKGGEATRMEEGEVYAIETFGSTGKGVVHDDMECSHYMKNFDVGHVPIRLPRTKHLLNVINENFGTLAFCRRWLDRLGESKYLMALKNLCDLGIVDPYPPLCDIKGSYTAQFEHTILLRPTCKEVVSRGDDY
UniProt O00311, whole entry: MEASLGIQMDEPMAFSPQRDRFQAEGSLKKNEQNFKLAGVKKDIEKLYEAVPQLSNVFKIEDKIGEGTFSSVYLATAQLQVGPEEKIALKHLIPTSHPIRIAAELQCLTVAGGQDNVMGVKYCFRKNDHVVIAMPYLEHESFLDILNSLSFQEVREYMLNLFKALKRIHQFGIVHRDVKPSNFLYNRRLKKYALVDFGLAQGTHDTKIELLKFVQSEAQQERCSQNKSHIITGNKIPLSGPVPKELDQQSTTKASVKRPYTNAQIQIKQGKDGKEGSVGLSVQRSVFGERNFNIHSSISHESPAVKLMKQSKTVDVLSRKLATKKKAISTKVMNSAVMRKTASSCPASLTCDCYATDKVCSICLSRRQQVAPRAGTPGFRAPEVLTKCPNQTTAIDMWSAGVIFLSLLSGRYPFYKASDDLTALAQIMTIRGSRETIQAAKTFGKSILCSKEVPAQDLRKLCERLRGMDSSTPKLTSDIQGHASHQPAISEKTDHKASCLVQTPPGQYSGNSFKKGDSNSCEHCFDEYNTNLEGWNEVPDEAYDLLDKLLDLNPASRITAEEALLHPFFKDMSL

O=C(OC(C(F)(F)F)C(F)(F)F)N1CC[C@H](OC(c2ccc(F)cc2)c2ccc(F)cc2)C1 — IC50 (MGLL (Homo sapiens, UniProt Q99685); inhibitor, fluorescence; together with: AHMMCE substrate): 0.101 ± 0.0111 µM
C[C@H](NC(=O)c1cc(C(=O)O)cc([C@H]2CCN[C@@H]2C(=O)O)c1)C(=O)O — IC50 (Glutamate receptor ionotropic, NMDA 2B, with GluN1 (Grin2b, Rattus norvegicus, UniProt Q00960); ion current, antagonist, two-electrode voltage clamp; Xenopus oocytes; GluN1/GluN2B, together with: glycine 100 µM and glutamate 1 µM): 7.17 ± 0.17 µM
NCCCSc1c2cc(O)ccc2nc2ccc(O)cc12 — IC50 (HASPIN (Homo sapiens, UniProt Q8TF76); inhibitor, TR-FRET; together with: histone H3 peptide): 0.044 µM
COC(=O)/C(=C/c1c[nH]c2ccc(OC)cc12)c1ccc(NS(C)(=O)=O)cc1 — IC50 (Amyloid-beta precursor protein, amyloid-beta peptide (APP, Homo sapiens, UniProt P05067); Aβ42 oligomerisation, ELISA): > 20 µM
Nc1nc2c(ncn2COCCNC(=O)CCCCNC(=O)c2cc3cc(Br)ccc3c(Br)c2O)c(=O)[nH]1 — IC50 (SAMHD1 (Homo sapiens, UniProt Q9Y3Z3); dNTPase activity, inhibitor, malachite green; together with: dATP and GTP): 16 ± 7 µM
O=C(CSc1cccc(C(F)(F)F)c1)Nc1ccc2nc(SCC(=O)NC3CC3)sc2c1 — IC50 (Estrogen receptor (ESR1, Homo sapiens, UniProt P03372); reporter gene, antagonist; HEC-1 transfected ERα luciferase reporter): 20 to 50 µM
COc1cc([C@@H]2c3cc4c(cc3[C@H](CC(C)C)[C@H]3COC(=O)[C@H]23)OCO4)cc(OC)c1OC — IC50 (Tubulin alpha/beta heterodimer (Leishmania infantum, UniProt A0A381MCS3+A4HTR0); tubulin polymerization, inhibitor; 37 °C, together with: tubulin 1.2 mg/mL): 1.14 µM and 1.1 µM
O=C(O)CCc1nc2sc3cc(-c4ccc(Cl)cc4)ccc3c2c(=O)[nH]1 — IC50 (FGFR1 (Homo sapiens, UniProt P11362); kinase activity, inhibitor, AlphaScreen; together with: biotinylated peptide substrate): 18 µM
CCOC(=O)c1noc2c1C(=O)C(C)=C(C)C2=O — IC50 (TDP2 (Homo sapiens, UniProt O95551); enzyme activity, inhibitor; together with: 5'-phosphotyrosyl oligonucleotide substrate): > 111 µM
CCc1cc2c(cc1C(C)=NN=C(C)c1cc3c(cc1CC)C(C)(C)CCC3(C)C)C(C)(C)CCC2(C)C — IC50 (Bcl-2-related protein A1 (Mus musculus, UniProt Q07440, C113S/P104K); binding, fluorescence polarization; together with: FITC-Noxa peptide): > 400 µM
COc1cc(C(=O)N2CCC(N3CCN(C)CC3)CC2)ccc1Nc1ncc2c(n1)N(C1CCCC1)c1ccccc1C(=O)N2C — IC50 (LRRK2 (Homo sapiens, UniProt Q5S007); kinase activity, Adapta): 0.095 ± 0.01 µM
O=C(Nc1ccc(-c2nc3ccccc3s2)cc1)c1cccc([N+](=O)[O-])c1 — IC50 (Tyrosine-protein kinase SYK, with FCER1G (SYK, Homo sapiens, UniProt P43405); protein binding, inhibitor, TR-FRET): > 100 µM
Nc1c(Cl)ccc2cccnc12 — IC50 (Methionine aminopeptidase 2 (Homo sapiens, UniProt P50579); enzyme activity, inhibitor, coupled; together with: Met-Pro-pNA substrate, Mn2+ 10 µM): > 15 µM
S=c1[nH]c2ccccc2s1 — IC50 (CA2 (Homo sapiens, UniProt P00918); inhibitor): 68.3 ± 10.7 µM
c1c(N2CCCC2)nc(N2CCCC2)nc1N1CCN(CC2CCCC2)CC1 — IC50 (Caspase-1 (CASP1, Homo sapiens, UniProt P29466); enzyme activity, inhibitor; 30 min preincubation, together with: Ac-WEHD-AMC 10 µM): 0.04 ± 0.007 µM
Cc1ncsc1-c1ccc(CNC(=O)[C@@H]2C[C@@H](O)CN2C(=O)c2cccc(C#N)c2)cc1 — IC50 (von Hippel-Lindau disease tumor suppressor, with elongin B, C (VHL, Homo sapiens, UniProt P40337); binding, fluorescence polarization; 10% DMSO, together with: FAM-HIF1α peptide tracer): 12 ± 0.5 µM
COc1ccc2[nH]cc(/C=C/c3ccc(NC(C)=O)cc3)c2c1 — IC50 (IDO1 (Homo sapiens, UniProt P14902); enzyme activity, inhibitor): 10.5 µM
CC(C)[C@H](N)c1nc2cc(-c3c[nH]cn3)sc2c(=O)[nH]1 — IC50 (CDC7 (Homo sapiens, UniProt O00311); enzyme activity, inhibitor): > 10 µM

Excerpt of the above:
C[C@H](NC(=O)c1cc(C(=O)O)cc([C@H]2CCN[C@@H]2C(=O)O)c1)C(=O)O — IC50 (Glutamate receptor ionotropic, NMDA 2B, with GluN1 (Grin2b, Rattus norvegicus, UniProt Q00960); ion current, antagonist, two-electrode voltage clamp; Xenopus oocytes; GluN1/GluN2B, together with: glycine 100 µM and glutamate 1 µM): 7.17 ± 0.17 µM
NCCCSc1c2cc(O)ccc2nc2ccc(O)cc12 — IC50 (HASPIN (Homo sapiens, UniProt Q8TF76); inhibitor, TR-FRET; together with: histone H3 peptide): 0.044 µM
